Assay results pooled from the literature.
Each numbered part is a random draw from the data of one study; scales do not carry over between parts.

Study 1 — method: protein-binding microarray; form: double-stranded DNA, one strand shown; medium: in vitro; tested at: 250 nM; setting: 60-bp whole probe; together with: salmon DNA 0.4 mg/ml; baseline: random background probes; reading: higher = stronger binding; shared flanks, not repeated: GCCTAGCAC … GTCTTGATTCGCTTGACGCTGCTG
Target: Interferon regulatory factor 5, full length, phosphomimetic (IRF5, Homo sapiens, UniProt Q13568-2, residues 1-514, K96S/S451D/S453D/S456D/S462D)
The log fluorescence of `AACGGTATCGGTCTCGGGACGTGCTAG` is reported as 5.72 z-score.
`GTAGGTTTCCTTTTCCTTTAGTGCTAG` has a log fluorescence of 1.59 z-score.
`TCGAGTCTGCAACATGGGACTGTGCTA` gave a log fluorescence of -0.147 z-score.
For `CTCAGGTAATATTTCCTGCTGTGCTAG`, the log fluorescence was -0.126 z-score.
`GAGGGTCTCCTTATCCTGACGTGCTAG` gave a log fluorescence of -0.499 z-score.
The log fluorescence of `GACGAATTGGGGACTGGAGACGTGCTA` is reported as -0.568 z-score.
With `AACGAACTGGGGACTGGAGACGTGCTA` the log fluorescence was -0.233 z-score.
`GTGCCTTTTTTTTTTTTTCTGTGCTAG` has a log fluorescence of 0.745 z-score.
With `CTGAGGCTGCCGTGGCCATGGTGCTAG` the log fluorescence was -0.715 z-score.
For `TCCATTTTCAGAATTTACTTGTGCTAG`, the log fluorescence was 1.86 z-score.
`CTAGAACTGGGGTATCGATTAGTGCTA` has a log fluorescence of 1.92 z-score.
The log fluorescence of `TTAGGACTGAACTTTCGGTTAGTGCTA` is reported as 9.41 z-score.
`GCTTTTATCCCTGACAGAAGGTGCTAG` gave a log fluorescence of 0.198 z-score.
With `TCAACTCTCAGAATCTCACTGTGCTAG` the log fluorescence was 0.418 z-score.
The log fluorescence of `TTATGTATCCTTTTCCTTTAGTGCTAG` is reported as 1.23 z-score.
For `TTAGATTTCAGACTGGATTTGTGCTAG`, the log fluorescence was 0.567 z-score.
`GACGGTATCGGGTATCGGGAAGTGCTA` gave a log fluorescence of 4 z-score.
`TTAGATATCGGGTATCGATTGGTGCTA` has a log fluorescence of 5.57 z-score.
For `GACGGTATCGGGTAACGGGACGTGCTA`, the log fluorescence was 3.37 z-score.
`TCACCTATGTCATTTACACTGTGCTAG` has a log fluorescence of 0.703 z-score.
`TTAGGACTGCGTTTCCTTTAGTGCTAG` gave a log fluorescence of -0.123 z-score.
For `TTAGATTGCGGGACTGGATTAGTGCTA`, the log fluorescence was -0.114 z-score.
`TTAGAGTTCGGGACTGGATTAGTGCTA` has a log fluorescence of -0.272 z-score.

Study 2 — method: RNA Bind-n-Seq; form: RNA; medium: in vitro; tested at: 100 nM; setting: RNA with constant flanks, ends assumed; baseline: input RNA pool; reading: higher = stronger binding
Target: RING finger protein unkempt homolog, zinc fingers 1-6, SBP tag (UNK, Homo sapiens, UniProt Q9C0B0, residues 30-357)
Sequence of UniProt Q9C0B0 (30-357, looked up): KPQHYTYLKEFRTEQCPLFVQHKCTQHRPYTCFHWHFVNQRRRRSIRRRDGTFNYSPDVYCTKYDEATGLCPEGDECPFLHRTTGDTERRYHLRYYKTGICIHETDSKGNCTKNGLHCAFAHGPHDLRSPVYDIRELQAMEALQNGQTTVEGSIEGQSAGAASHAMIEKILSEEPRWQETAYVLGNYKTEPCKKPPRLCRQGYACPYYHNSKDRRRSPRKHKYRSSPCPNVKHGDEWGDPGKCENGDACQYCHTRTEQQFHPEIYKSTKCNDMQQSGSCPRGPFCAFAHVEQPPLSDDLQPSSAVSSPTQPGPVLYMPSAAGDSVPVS
`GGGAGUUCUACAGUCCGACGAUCUCCCCAUUACCCCUAAAGCCGAACAUUUUUUAAAUUGUGUUGCCACCACUUCUAAAAAUUCCGCAAUAUCCGAACCGGAUACCCGUGAAGUAAGAAAUUUUGCUUGUUGUUUUGCAAACCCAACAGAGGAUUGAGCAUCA` gave a bound/input enrichment of 0.677 ratio.
`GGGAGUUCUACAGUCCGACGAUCUCAGUCCCCUGGGCCGGGACAGAUUUUUUUUAACGUCUUGAAACUUAAACUCUGUGCUUGCCGGAUACUGUAACCUUUUUGUCUUUUUUUUUUUUUUUUUUUUUAAACCUCCACCUCCAGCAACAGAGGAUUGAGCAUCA` gave a bound/input enrichment of 2.34 ratio.
With `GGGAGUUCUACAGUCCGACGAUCGUGACUUUGGAAGUCCGCCGUGUCUCAUUGCAGAUAAUUUUCCGCUCCGGGCCUGGUGGCCCGGUCGGUUCUCUCCUUUCCAGUCGGAGACCUCUGCCGCAAACAUGCUCCGCCAGAUCACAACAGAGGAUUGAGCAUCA` the bound/input enrichment was 0.384 ratio.
The bound/input enrichment of `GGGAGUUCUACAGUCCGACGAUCAUUUAAAAUGCCGUCCGUUAUAUUUAAUGACCUCAUUCCUAAGUUCCUUUUUCGUUAAUGCCGCUUUCAUUUCUGUUAUUGCUGUUUGAAUAAUAUGAUUAAACCGAAGGUUUGUGCCAGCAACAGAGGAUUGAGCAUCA` is reported as 0.357 ratio.
For `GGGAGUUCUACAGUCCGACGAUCGUGUUUUGUACAGGGCAUUCUCUGUACCCGUUUGUCGUGGUUAUAAAACAAUCCGCAGAACCGCCUACAUUUGUAUUUAUUUUCUAUUCCAUACUUCUGCCCACGUUGUUUUCUCUCAAACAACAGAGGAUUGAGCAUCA`, the bound/input enrichment was 0.715 ratio.
With `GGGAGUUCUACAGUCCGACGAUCGUGGGGAUGAGGGUGGGAUGGGAAAGGGAUGUAUGGAUGUUAUUGGCAUUUUUAAGUGUUCCGAGUUUUUUGGGGUUUGGGGUGGUUUUUUUUCCUUGUUUUCCUUUUUUCCUUUUAAUUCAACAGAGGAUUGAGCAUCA` the bound/input enrichment was 1.07 ratio.

Study 3 — method: RNA Bind-n-Seq; form: RNA; medium: in vitro; tested at: 1 µM; setting: whole 134-nt RNA, ends assumed; together with: 150 mM KCl; baseline: input library; reading: higher = stronger binding
Target: Ras GTPase-activating protein-binding protein 1, RRM domain (G3BP1, Homo sapiens, UniProt Q13283)
Sequence of UniProt Q13283 (whole entry, looked up): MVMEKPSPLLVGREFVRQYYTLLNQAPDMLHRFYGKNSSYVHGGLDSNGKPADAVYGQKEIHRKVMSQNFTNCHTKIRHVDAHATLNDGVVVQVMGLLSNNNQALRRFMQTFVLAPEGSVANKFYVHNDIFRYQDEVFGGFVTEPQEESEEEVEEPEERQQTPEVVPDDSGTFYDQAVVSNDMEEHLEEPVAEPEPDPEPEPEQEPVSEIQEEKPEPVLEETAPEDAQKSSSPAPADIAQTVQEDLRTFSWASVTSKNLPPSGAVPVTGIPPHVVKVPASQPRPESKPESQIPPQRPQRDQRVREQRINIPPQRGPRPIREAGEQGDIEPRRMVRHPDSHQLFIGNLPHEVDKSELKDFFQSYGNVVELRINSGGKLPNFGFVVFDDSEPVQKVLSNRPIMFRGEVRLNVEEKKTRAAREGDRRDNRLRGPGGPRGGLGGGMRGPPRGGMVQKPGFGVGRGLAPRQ
`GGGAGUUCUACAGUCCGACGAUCGCAGGAAGUAAAAACAAAUGGAAAUGCUUCGGAUAGUGGCAGGGGUGGGGGUUGCUAAGGAAAGGGUAGGAUGGGAGUGGGUAAAGAGUUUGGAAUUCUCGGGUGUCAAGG` gave a log2 enrichment of 1.47.
With `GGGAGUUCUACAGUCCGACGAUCCCUCAAGUCCUGUGCUACACAUCGUAUGUACCGAAUCGGAGGAGGUUUUUGGAAAGUAUUAUGUUACGCCGUUCGGAUCUGCACUUCCAGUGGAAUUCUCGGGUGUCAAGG` the log2 enrichment was -0.215.
With `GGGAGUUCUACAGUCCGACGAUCAAGUCCUGUGCUACACAUCGUAUGUACCGAAUCGGAAAAAGGAAAAAGGAAAAAGGAAAGUAUUAUGUUACGCCGUUCGGAUCUGCACUUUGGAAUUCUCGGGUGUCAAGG` the log2 enrichment was -0.0191.
`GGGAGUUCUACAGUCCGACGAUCACCAUGCAGGUGGGCAUCUUUGGGAAGUGGGGCAAGGGGGGGAUAGGGAGGGGGGUAACACUUUGGGAACAGGUGGUCCCAAAACGUUUCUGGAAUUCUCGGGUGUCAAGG` has a log2 enrichment of -0.422.
The log2 enrichment of `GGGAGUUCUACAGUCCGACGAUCACCAUGCAGGUGGGGAUCUUUGGGAAGUGGGGCAAGGGGGGGAUAGGGAGGGGGGUAACACUUUGGGAACAGGUGGUCCCAGGUCGUUUCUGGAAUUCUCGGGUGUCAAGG` is reported as -0.517.
`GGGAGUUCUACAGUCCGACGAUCACAAGUGGAGGAGAAGAACUUAGAAGAACUAGAGGAGAAAUCUACUACUCCUCCUCCGGCAGAACCUGUUUCUCUGCCACAAGAACCACCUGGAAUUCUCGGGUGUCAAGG` gave a log2 enrichment of -0.0238.
With `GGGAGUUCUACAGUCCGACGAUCUUUAGUGACUUUGGAUGAAGUAACUGAAGAGGAUGAAGACUCUCUGGCGGAUUUUAACAACCUUAAAGAAGAGCUUAAUUUUGUUACUGUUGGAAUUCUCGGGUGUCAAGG` the log2 enrichment was -0.298.
`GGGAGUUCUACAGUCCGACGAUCUGGCCCUGGUGGCAUGCGGGGAGGAAGAGGUGGCCUCAUGGAUCGUGGUGGUUCCGGUGGAAUGUUCAGAGGUGGCCGUGGUGGAGACAGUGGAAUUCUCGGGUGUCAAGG` gave a log2 enrichment of 0.255.
`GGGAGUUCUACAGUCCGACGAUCUGUACUGAUGACAGCUAAUCUCUGAAUCUUUUUCCUCCAGGAUGUUCCUUCAGGAGGAAGCAGCACUAAAAGCACUCUGAGUCAAGAUGAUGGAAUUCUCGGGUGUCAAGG` gave a log2 enrichment of -0.26.
The log2 enrichment of `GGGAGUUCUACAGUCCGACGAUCUCAAGUCCUGUGCUACACAUCGUAUGUACCGAAUCGGGGCCGGCCGGGGCCGGGGAAAGUAUUAUGUUACGCCGUUCGGAUCUGCACUUCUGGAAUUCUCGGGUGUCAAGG` is reported as -1.27.

Study 4 — method: protein-binding microarray; form: double-stranded DNA, one strand shown; medium: in vitro; tested at: 0.8 µM; setting: whole 60-bp probe, no competitor; reading: higher = stronger binding
Target: Centromere-binding protein 1, full length, N-terminal tag (CBF1, Saccharomyces cerevisiae, UniProt P17106, residues 1-351)
Sequence of UniProt P17106 (whole entry, looked up): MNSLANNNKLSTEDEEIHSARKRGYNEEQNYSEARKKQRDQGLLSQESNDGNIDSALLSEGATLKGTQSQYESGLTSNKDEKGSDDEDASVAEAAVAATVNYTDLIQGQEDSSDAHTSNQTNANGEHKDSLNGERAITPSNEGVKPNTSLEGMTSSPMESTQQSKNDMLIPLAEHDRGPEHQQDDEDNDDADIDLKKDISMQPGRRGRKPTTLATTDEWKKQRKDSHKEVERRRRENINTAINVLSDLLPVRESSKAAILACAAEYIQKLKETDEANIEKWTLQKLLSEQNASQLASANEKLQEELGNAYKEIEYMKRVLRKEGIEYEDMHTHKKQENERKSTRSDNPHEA
`GAAATATGAGTTTCTAACGTGCAATGTTTGGTGTAGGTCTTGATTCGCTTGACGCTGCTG` has a fluorescence intensity of 529 a.u.
`CTAGTAATTAAAGATCATGTTGGAGTAAAAATCTTCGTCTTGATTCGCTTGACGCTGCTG` gave a fluorescence intensity of 575 a.u.
`CTAATCTTCATAGTGATCATGAAGTTGTGGGAATTCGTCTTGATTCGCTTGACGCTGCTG` gave a fluorescence intensity of 529 a.u.
For `GAACGTAATAGGTATCACGCTATTTACTCTTGCTAGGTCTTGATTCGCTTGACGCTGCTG`, the fluorescence intensity was 863 a.u.
The fluorescence intensity of `CTACATTTGCTTTCCCCCACCAGACATATATAATTCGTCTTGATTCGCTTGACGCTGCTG` is reported as 590 a.u.
With `CTACTGCTGTCATAACGCGTGGTGTTGTGGTTTTTCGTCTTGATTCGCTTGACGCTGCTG` the fluorescence intensity was 578 a.u.
For `CCTAACTACTATATTCTCGTGCGATAGCTTCGTACAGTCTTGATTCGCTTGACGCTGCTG`, the fluorescence intensity was 582 a.u.
For `GAATAGTGAAATATGCACATGAAATTGTATTGGTAGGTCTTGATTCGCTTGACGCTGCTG`, the fluorescence intensity was 550 a.u.
For `TGTACGAAGCTATATCACGTCAATATAGTAGTTAGGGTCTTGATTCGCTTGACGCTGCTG`, the fluorescence intensity was 542 a.u.
The fluorescence intensity of `CCTAACTACTATAGCGTCACCATATAGCTTCGTACAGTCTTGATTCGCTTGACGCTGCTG` is reported as 528 a.u.
For `GAATGGTACAGGAATCACACCCTTGAGCTTCTTTAGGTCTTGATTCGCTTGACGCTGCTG`, the fluorescence intensity was 514 a.u.
With `CCTAACTACTATATGAACGTGGTATAGCTTCGTACAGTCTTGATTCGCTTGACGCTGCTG` the fluorescence intensity was 589 a.u.
For `CTAGTTATCCTAAATGACATCACGATGATAAATTTCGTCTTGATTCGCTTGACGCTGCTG`, the fluorescence intensity was 764 a.u.
`CTAAATTCCAAGACTCTCACCTGCGACTGGTCGTTCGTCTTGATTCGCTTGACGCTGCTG` gave a fluorescence intensity of 471 a.u.
`TGTACGAAGCTATCTCATCTGACTATAGTAGTTAGGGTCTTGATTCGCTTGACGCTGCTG` gave a fluorescence intensity of 528 a.u.
`CTAGGGACAGAATGCCACCAGACTTCATGACCGTTCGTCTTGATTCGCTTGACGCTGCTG` gave a fluorescence intensity of 585 a.u.
`TGTACGAAGCTATTCCACGAGGATATAGTAGTTAGGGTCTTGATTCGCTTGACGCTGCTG` has a fluorescence intensity of 550 a.u.
`GAAAAAGCACATGCTATCGTGTCATCATTTCGTTAGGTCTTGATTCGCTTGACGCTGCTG` has a fluorescence intensity of 782 a.u.
`CCTAACTACTATACACGTGCGACATAGCTTCGTACAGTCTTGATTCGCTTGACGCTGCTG` gave a fluorescence intensity of 4900 a.u.
`CTATACATCAAAATCCACGTTCTCTTCATGGTATTCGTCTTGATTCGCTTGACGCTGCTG` has a fluorescence intensity of 553 a.u.
The fluorescence intensity of `TGTACGAAGCTATGTGATTTTGATATAGTAGTTAGGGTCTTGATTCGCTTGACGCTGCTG` is reported as 510 a.u.
For `GAATTGATAGGTGTGTGCGTGTATATACGTGCGTAGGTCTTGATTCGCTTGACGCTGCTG`, the fluorescence intensity was 585 a.u.
With `GAATAGAACCAGCCGCACATGGCCGGAGAAACTTAGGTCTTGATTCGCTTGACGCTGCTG` the fluorescence intensity was 542 a.u.
`CTAGCCCAGATGGTTCTGATGTTCTTTATCTCTTTCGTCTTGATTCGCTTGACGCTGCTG` gave a fluorescence intensity of 490 a.u.
